Measured values from different studies.
Each line is one published result; not all experiments were run side by side. ± gives the spread as reported.

| SMILES | target or system | test | test system | conditions | endpoint | value |
| --- | --- | --- | --- | --- | --- | --- |
| NC(=O)c1ncn([C@@H]2O[C@H](CO)[C@@H](O)[C@H]2O)n1 | Lassa virus | – | HeLa, clade III Nigeria-231 | – | EC50 | 2.38 ± 0.4 µM |
| C=C[C@]12CN(C)[C@@H]3[C@H]4CO[C@H](C[C@H]41)[C@]1(C(=O)Nc4ccccc41)[C@@H]32 | – | – | Kunming mice both sexes | intraperitoneal, 7 days | LD50 | > 30 mg/kg |
| CCOP(=S)(OCC)Oc1nc(Cl)c(Cl)cc1Cl | ReNcell VM | YO-PRO-1 staining | – | 24 h | lowest concentration increasing apoptotic cells | ≤ 0.78 µM |
| NC(=O)c1nc(F)c[nH]c1=O | Lassa virus | – | HeLa, clade II Nigeria-322 | – | EC50 | 47.3 ± 12.5 µM |
| CC[C@H](C)[C@H](NC(=O)[C@H](CCC(N)=O)NC(=O)[C@H](CC(=O)O)NC(=O)[C@@H](NC(=O)[C@H](C)NC(=O)[C@H](C)NC(=O)[C@H](CC(N)=O)NC(=O)[C@@H](NC(=O)[C@@H](NC(=O)[C@H](C)NC(=O)[C@H](CCC(=O)O)NC(=O)CNC(=O)[C@H](C)NC(=O)[C@H](C)NC(=O)[C@H](CCC(=O)O)NC(=O)[C@H](C)NC(=O)[C@H](C)NC(=O)CNC(=O)[C@H](CCCCN)NC(=O)CNC(=O)[C@H](Cc1ccccc1)NC(=O)[C@H](CO)NC(=O)[C@@H](NC(=O)[C@H](CC(C)C)NC(=O)[C@@H](NC(=O)[C@H](CC(N)=O)NC(=O)[C@H](CCCNC(=N)N)NC(=O)CNC(=O)[C@H](Cc1ccccc1)NC(=O)[C@H](CCCCN)NC(=O)[C@H](CO)NC(=O)CNC(=O)[C@H](CCCCN)NC(=O)[C@H](CCCNC(=N)N)NC(=O)[C@H](CCCCN)NC(=O)[C@H](CCCCN)NC(=O)[C@H](CCCNC(=N)N)NC(=O)[C@@H](N)CCCCN)[C@@H](C)CC)[C@@H](C)O)[C@@H](C)O)C(C)C)C(C)C)C(=O)N[C@@H](CC(C)C)C(=O)N[C@@H](CCC(=O)O)C(=O)N[C@@H](C)C(=O)N[C@@H](CCC(N)=O)C(=O)NCC(=O)N[C@@H](CCC(=O)O)C(=O)NCC(=O)N[C@@H](CCC(=O)O)C(=O)N[C@@H](Cc1ccc(O)cc1)C(=O)O | Drosophila melanogaster | calcium response, calcium imaging | class III da neurons, ppk1.9-Gal4 UAS-GCaMP6f | – | EC50 | 2.29 µM |
| CCC(=O)[C@]12N[C@H]3C[C@@]4(C(=O)N(OC)c5ccccc54)[C@H](OC[C@H]31)[C@@H]2O | – | – | Kunming mice both sexes | intraperitoneal, 7 days | LD50 | > 30 mg/kg |
| CC[C@H](C)[C@H](NC(=O)CNC(=O)CNC(=O)[C@@H](NC(=O)[C@@H](N)CCCNC(=N)N)[C@@H](C)CC)C(=O)N[C@@H](CC(C)C)C(=O)N[C@@H](CCCCN)C(=O)N[C@H](C(=O)N[C@@H](CC(C)C)C(=O)N[C@@H](CCCCN)C(=O)N[C@@H](CCCCN)C(=O)N[C@H](C(=O)N[C@@H](CC(C)C)C(=O)N1CCC[C@H]1C(=O)N[C@@H](CCCCN)C(=O)N[C@@H](C)C(=O)N[C@H](C(=O)N[C@@H](CCCCN)C(=O)N[C@@H](C)C(=O)N[C@@H](C)C(=O)N[C@@H](C)C(=O)N[C@@H](CCC(=O)O)C(=O)N[C@@H](CCSC)C(=O)N[C@@H](C)C(=O)N1CCC[C@H]1C(=O)N1CCC[C@H]1C(=O)N[C@@H](CCC(N)=O)C(=O)N[C@@H](CC(N)=O)C(=O)N[C@@H](CCC(=O)O)C(=O)O)[C@@H](C)CC)C(C)C)[C@@H](C)CC | Drosophila melanogaster | calcium response, calcium imaging | class IV da neurons, ppk1.9-Gal4 UAS-GCaMP6f | – | EC50 | 48.7 µM |
| N#Cc1c(Cl)c(Cl)c(Cl)c(Cl)c1C#N | MERS-CoV spike VSV pseudovirus | pseudovirus entry | – | 10 µM | inhibition | 57% |

Excerpt of the above:
| SMILES | target or system | test | test system | conditions | endpoint | value |
| --- | --- | --- | --- | --- | --- | --- |
| C=C[C@]12CN(C)[C@@H]3[C@H]4CO[C@H](C[C@H]41)[C@]1(C(=O)Nc4ccccc41)[C@@H]32 | – | – | Kunming mice both sexes | intraperitoneal, 7 days | LD50 | > 30 mg/kg |
